Measured values pooled from the literature.
Parts stem from different laboratories: compare values within a part only.

Block 1
Target: Sal-like protein 4, full length isoform A (SALL4, Homo sapiens, UniProt Q9UJQ4, residues 1-1053)
Sequence of UniProt Q9UJQ4 (whole entry, looked up): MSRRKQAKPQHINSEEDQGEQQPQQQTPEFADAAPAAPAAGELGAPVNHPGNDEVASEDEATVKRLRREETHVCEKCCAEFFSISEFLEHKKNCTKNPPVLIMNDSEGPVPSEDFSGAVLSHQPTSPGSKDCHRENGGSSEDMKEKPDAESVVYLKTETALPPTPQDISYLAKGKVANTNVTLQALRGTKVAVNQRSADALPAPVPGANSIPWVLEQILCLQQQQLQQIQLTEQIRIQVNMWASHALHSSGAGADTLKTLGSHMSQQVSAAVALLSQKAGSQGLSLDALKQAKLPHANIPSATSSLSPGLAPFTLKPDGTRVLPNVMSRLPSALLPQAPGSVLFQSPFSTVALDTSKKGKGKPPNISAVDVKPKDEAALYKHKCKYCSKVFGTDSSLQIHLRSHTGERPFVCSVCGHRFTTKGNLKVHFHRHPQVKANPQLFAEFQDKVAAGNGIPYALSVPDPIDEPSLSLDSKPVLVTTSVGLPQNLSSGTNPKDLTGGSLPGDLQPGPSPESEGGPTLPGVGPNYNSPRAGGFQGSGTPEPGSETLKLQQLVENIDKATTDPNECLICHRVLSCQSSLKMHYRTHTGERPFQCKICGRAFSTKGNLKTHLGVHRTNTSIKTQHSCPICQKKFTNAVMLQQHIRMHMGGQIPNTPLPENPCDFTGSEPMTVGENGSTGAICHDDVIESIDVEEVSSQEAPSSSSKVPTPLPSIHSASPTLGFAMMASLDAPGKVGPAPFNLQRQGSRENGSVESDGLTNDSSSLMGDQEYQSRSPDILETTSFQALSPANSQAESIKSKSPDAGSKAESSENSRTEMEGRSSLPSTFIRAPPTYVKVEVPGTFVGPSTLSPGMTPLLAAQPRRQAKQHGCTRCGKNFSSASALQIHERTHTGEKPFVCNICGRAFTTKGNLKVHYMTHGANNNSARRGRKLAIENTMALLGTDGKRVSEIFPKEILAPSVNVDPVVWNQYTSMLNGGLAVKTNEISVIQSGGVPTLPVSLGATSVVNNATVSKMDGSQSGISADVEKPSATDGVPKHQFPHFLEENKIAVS
Technique: universal PBM
Form: double-stranded DNA, one strand shown
Sample: in vitro
Tested at: 600 nM
Notes: 8-mer, flanks averaged, mean of replicates
Reading: higher = stronger binding
Sequence | E-score
GACTTCGC | -0.186
TAACTCAA | 0.176
ATCCAATG | -0.0181
AAACAAAT | 0.329
AGCACCCA | -0.184
GCTCAGAC | -0.133

Block 2
Target: Interferon regulatory factor 5, full length, phosphomimetic (IRF5, Homo sapiens, UniProt Q13568-2, residues 1-514, S451D/S453D/S456D/S462D)
Technique: protein-binding microarray
Form: double-stranded DNA, one strand shown
Sample: in vitro
Tested at: 940 nM top
Notes: 60-bp whole probe
Together with: salmon DNA 0.4 mg/ml
Relative to: random background probes
Reading: higher = stronger binding
Sequence | fitted relative affinity
GCCTAGCACGGCTGTTTGGTCCTGAACCTGTGCTAGGTCTTGATTCGCTTGACGCTGCTG | -0.801 z-score
GCCTAGCACTTTACTTTCTGAATGCCCTTGTGCTAGGTCTTGATTCGCTTGACGCTGCTG | 2.73 z-score
GCCTAGCACGACGATTCCAGTGTCGAGACGTGCTAGGTCTTGATTCGCTTGACGCTGCTG | -0.0363 z-score
GCCTAGCACTTAGGTATCGACTATCGGATAGTGCTAGTCTTGATTCGCTTGACGCTGCTG | 5.67 z-score

Block 3
Target: Histone acetyltransferase KAT6A, winged helix 1, GST fusion (KAT6A, Homo sapiens, UniProt Q92794, residues 1-85)
Technique: protein binding microarray
Form: double-stranded DNA, one strand shown
Sample: in vitro
Tested at: not given
Notes: 8-mer, flanks averaged, mean of 2 arrays, mostly near background
Relative to: not given
Reading: higher = stronger binding
Residues (chain): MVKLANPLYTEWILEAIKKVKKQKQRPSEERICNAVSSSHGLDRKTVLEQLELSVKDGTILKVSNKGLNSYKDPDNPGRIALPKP
Sequence | E-score
GCGGACGC | 0.347
CGTTCGTC | 0.151
ACTTATCG | -0.00215
GAGCAGAA | -0.0443

Other studies, line by line
Molecule | target | assay | test system | conditions | how to read | quantity | result
PhoQ, residues 284 288 289 292 302 303 AMDMFI | PhoP, residues 12 14 15 18 19 LHSVW (Escherichia coli, UniProt P23836) | Sort-seq, measured: YFP reporter | E. coli | PhoQ-PhoP variant library, together with: 10 µM Mg2+ | relative to: high Mg2+ state, higher = stronger signaling | fold induction | 0.815

For quick reference, copied from above (block 1):
Sequence | E-score
ATCCAATG | -0.0181
AAACAAAT | 0.329
